{"data": "Measurements collected from several papers", "SMARCA4": "SWI/SNF-related matrix-associated actin-dependent regulator of chromatin subfamily A member 4 (SMARCA4, Homo sapiens, UniProt P51532)", "uncharacterized protein": "uncharacterized protein (Bos taurus, UniProt E1BM68)", "USP3 ZnF-UBD domain": "Ubiquitin carboxyl-terminal hydrolase 3, ZnF-UBD domain (USP3, Homo sapiens, UniProt Q9Y6I4)", "note": "Each line is one published result; not all experiments were run side by side. ± gives the spread as reported.", "chain of UniProt P51532 (whole entry, looked up)": "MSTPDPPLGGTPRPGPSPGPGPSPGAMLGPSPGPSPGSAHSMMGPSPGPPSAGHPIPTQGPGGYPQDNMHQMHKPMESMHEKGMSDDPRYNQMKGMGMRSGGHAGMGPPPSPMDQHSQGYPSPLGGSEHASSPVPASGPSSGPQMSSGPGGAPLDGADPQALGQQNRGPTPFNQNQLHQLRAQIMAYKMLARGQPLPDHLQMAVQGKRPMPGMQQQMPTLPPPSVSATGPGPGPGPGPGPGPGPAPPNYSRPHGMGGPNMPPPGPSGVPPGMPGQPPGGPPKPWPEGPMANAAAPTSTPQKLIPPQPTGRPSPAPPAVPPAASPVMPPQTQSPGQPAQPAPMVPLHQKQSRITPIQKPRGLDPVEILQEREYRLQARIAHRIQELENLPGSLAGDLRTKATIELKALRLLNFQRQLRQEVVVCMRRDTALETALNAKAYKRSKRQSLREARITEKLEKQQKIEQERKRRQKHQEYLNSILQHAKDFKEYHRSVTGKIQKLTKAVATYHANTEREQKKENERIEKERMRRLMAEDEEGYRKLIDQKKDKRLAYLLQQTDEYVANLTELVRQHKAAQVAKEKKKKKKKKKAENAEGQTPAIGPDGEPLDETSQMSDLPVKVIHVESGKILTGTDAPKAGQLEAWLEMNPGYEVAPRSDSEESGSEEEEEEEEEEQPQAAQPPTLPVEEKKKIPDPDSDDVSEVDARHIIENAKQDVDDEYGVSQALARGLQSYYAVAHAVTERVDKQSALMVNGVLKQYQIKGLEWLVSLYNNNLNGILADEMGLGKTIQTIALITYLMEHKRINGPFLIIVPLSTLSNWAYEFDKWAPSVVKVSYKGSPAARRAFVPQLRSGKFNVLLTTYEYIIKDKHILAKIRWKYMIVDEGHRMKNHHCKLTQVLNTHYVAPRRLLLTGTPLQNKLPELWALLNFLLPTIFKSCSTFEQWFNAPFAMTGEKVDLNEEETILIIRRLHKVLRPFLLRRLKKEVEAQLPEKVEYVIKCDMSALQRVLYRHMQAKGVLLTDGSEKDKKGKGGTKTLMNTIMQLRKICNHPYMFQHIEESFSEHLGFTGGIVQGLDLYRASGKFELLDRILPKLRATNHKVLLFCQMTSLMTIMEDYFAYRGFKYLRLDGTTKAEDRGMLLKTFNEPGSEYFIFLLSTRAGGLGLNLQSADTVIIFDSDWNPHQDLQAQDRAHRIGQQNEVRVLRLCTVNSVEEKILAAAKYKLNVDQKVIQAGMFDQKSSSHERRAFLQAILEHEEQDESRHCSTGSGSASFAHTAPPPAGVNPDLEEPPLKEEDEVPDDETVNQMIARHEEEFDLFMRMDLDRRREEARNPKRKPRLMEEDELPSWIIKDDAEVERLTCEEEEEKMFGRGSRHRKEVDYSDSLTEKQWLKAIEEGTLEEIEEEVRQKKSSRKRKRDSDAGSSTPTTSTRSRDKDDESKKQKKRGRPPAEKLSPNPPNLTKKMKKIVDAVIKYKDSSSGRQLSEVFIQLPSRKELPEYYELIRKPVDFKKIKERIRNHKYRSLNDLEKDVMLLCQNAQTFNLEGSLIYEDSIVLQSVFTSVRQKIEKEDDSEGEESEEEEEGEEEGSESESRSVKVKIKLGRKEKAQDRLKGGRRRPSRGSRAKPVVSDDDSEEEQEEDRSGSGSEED", "chain of UniProt Q9Y6I4 (whole entry, looked up)": "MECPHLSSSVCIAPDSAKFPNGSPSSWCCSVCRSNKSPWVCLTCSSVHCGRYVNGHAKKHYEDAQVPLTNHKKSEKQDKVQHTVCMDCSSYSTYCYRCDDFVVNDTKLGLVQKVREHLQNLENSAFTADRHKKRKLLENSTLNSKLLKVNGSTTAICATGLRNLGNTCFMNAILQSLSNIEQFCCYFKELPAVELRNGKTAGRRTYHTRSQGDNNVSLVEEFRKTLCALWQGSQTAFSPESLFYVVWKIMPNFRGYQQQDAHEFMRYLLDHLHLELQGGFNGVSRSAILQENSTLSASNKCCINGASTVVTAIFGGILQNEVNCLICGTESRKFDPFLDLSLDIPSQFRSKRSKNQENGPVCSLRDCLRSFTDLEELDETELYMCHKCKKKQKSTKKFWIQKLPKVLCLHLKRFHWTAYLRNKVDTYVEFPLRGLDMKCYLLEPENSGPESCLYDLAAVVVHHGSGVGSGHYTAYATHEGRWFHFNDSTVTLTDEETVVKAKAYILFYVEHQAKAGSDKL", "chain of UniProt Q8N884 (whole entry, looked up)": "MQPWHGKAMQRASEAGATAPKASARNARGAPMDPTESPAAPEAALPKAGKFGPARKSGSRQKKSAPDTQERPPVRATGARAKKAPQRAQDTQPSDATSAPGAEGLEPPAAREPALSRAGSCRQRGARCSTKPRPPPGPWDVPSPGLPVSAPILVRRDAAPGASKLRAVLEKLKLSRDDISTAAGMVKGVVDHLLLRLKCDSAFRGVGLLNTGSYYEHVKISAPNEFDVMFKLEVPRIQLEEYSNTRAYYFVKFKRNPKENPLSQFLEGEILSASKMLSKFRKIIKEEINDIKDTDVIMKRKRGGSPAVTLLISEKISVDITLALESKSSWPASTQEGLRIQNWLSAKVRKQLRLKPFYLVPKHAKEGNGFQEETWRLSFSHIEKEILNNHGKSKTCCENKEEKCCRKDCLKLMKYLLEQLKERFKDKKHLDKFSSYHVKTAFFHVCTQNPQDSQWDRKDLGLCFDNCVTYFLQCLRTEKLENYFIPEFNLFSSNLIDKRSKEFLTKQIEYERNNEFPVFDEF", "chain of UniProt P46098 (whole entry, looked up)": "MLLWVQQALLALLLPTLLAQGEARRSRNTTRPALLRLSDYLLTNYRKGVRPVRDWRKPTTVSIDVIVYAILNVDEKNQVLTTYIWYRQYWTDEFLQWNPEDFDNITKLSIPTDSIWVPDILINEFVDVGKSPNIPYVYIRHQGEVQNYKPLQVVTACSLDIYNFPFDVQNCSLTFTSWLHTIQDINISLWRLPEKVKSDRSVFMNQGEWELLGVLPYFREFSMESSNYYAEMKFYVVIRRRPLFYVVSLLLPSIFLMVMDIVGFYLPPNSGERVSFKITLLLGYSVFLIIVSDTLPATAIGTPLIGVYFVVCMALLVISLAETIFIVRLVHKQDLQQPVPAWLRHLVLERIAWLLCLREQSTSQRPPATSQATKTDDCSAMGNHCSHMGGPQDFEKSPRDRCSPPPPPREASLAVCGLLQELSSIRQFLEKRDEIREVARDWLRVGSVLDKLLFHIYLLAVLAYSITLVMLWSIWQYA", "chain of UniProt P02769 (whole entry, looked up)": "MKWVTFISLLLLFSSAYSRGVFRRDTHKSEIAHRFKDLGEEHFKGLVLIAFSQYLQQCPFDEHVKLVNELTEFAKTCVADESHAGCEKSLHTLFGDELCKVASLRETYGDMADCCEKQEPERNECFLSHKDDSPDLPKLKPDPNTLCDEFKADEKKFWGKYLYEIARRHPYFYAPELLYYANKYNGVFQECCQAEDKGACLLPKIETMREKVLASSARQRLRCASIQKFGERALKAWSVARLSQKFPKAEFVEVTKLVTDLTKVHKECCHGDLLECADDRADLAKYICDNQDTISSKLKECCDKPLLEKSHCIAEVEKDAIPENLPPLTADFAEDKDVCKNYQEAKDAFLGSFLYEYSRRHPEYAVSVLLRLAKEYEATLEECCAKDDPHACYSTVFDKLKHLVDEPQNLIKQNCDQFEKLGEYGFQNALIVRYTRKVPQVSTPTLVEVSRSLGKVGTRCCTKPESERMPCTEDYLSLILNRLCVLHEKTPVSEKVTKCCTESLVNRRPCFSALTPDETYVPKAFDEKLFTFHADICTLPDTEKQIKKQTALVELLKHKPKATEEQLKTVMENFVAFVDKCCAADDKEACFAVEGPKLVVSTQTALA", "chain of UniProt Q02152 (whole entry, looked up)": "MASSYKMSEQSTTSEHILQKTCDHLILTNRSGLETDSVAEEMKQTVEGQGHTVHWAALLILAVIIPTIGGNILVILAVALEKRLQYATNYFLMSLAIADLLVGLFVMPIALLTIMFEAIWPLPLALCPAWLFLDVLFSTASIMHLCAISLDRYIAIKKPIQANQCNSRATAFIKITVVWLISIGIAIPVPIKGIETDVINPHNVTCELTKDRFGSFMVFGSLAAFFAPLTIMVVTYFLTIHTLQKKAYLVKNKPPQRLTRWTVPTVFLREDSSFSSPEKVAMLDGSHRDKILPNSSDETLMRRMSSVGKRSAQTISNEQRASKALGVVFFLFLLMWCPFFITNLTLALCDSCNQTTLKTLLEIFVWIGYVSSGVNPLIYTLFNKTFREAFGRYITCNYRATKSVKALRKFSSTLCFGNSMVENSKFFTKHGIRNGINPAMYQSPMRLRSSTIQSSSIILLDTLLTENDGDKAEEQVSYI", "chain of UniProt Q9LJE2 (whole entry, looked up)": "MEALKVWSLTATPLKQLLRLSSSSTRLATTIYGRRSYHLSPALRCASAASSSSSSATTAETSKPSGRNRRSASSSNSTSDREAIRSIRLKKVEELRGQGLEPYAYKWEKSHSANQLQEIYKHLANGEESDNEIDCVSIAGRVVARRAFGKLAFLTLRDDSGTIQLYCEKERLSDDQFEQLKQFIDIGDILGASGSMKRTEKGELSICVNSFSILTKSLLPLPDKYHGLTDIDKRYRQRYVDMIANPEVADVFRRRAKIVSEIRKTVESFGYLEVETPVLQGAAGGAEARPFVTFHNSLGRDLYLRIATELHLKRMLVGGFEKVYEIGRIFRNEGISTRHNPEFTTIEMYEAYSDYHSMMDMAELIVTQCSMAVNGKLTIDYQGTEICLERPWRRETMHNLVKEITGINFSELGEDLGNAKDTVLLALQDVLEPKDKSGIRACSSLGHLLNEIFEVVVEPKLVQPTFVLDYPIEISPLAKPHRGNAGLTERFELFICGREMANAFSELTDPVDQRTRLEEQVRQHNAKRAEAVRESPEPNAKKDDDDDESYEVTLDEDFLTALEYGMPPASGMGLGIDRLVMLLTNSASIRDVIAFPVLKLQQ"}
{"Compound": "Nc1nnc(-c2ccccc2O)cc1N1CCN(Cc2ccc(OCCOCCNc3cccc4c3C(=O)N(C3CCC(=O)NC3=O)C4=O)c(F)c2)CC1 (centres unmarked)", "target or system": "SMARCA4", "test": "degrader, immunoblot", "test system": "SMARCA4 wild-type lung cancer cells", "conditions": "96 h, median of twelve cell lines", "measurement": "DC50", "value": "> 10000 nM"}
{"Compound": "Cc1ncsc1-c1ccc([C@H](C)NC(=O)[C@@H]2C[C@@H](O)CN2C(=O)[C@@H](NC(=O)CCCCCC(=O)N2CCC3(CC2)CCN(c2cncc(Nc4ncc(Cl)c(-c5cccc(-c6ccccc6)c5)n4)c2)C3=O)C(C)(C)C)cc1", "target or system": "Phosphatidylinositol 5-phosphate 4-kinase type-2 gamma (PIP4K2C, Homo sapiens, UniProt Q8TBX8)", "test": "degrader, immunoblot", "test system": "HAP1", "conditions": "6 h", "measurement": "DC50", "value": "361 nM"}
{"Compound": "Cc1cnc(C)c(C)n1", "target or system": "uncharacterized protein", "test": "cAMP level, agonist, cAMP luminescence", "test system": "HEK293 cells", "measurement": "EC50", "value": "174 ± 22.4 µM"}
{"Compound": "Nc1nnc(-c2ccccc2O)cc1N1CC2CCC(C1)N2c1ccnc(F)c1", "target or system": "SMARCA4", "test": "degrader, immunofluorescence", "test system": "SW1573", "measurement": "DC50", "value": "> 1000 nM"}
{"Compound": "O=C(O)CCC(=O)Nc1cccc2ccccc12", "target or system": "USP3 ZnF-UBD domain", "measurement": "Kd", "value": "> 1000 µM"}
{"Compound": "Cc1cnc(C)cn1", "target or system": "uncharacterized protein", "test": "cAMP level, agonist, cAMP luminescence", "test system": "HEK293 cells", "measurement": "EC50", "value": "1190 ± 195 µM"}
{"Compound": "Cc1ccc([C@H]2C[C@@H]2COc2cc(NCc3nnc(C)s3)nc(C)n2)nc1", "target or system": "cGMP-specific 3',5'-cyclic phosphodiesterase (PDE5A, Homo sapiens, UniProt O76074)", "test": "enzyme activity, inhibitor, IMAP fluorescence polarization", "conditions": "with: cGMP", "measurement": "Ki", "value": "46.8 µM"}
{"Compound": "COc1nccnc1C(C)C", "target or system": "uncharacterized protein", "test": "cAMP level, agonist, cAMP luminescence", "test system": "HEK293 cells", "measurement": "EC50", "value": "171 ± 19.4 µM"}
{"Compound": "Cc1ccc(C(=O)O)cc1S(=O)(=O)Nc1cccc(C(=O)CCC(=O)O)c1", "target or system": "USP3 ZnF-UBD domain", "measurement": "Kd", "value": "283 µM"}
{"Compound": "O=C(NCc1cc[nH]n1)c1ccc(C2CCCCC2)cc1", "test": "hepatocyte stability", "test system": "cryopreserved rat hepatocytes", "conditions": "1 µM", "measurement": "hepatic clearance", "value": "52 mL/min/kg"}
{"Compound": "O=C(O)CCc1cnn(-c2ccccc2)c1", "target or system": "USP3 ZnF-UBD domain", "measurement": "Kd", "value": "> 1000 µM"}
{"Compound": "Cc1ncsc1-c1ccc(CNC(=O)[C@@H]2C[C@@H](O)CN2C(=O)[C@@H](NC(=O)C2(F)CC2)C(C)(C)C)c(OCCOc2ccc(CN3CCN(c4cc(-c5ccccc5O)nnc4N)CC3)cc2)c1", "target or system": "SMARCA4", "test": "degrader, immunofluorescence", "test system": "SW1573", "measurement": "DC50", "value": "13.1 nM"}
{"Compound": "O=C(O)CCC(=O)N1CCc2ccccc21", "target or system": "USP3 ZnF-UBD domain", "measurement": "Kd", "value": "> 1000 µM"}
{"Compound": "N#C[C@@]12C[C@@H]1[C@@H](n1cnc3c(NC4CCCC4)nc(I)nc31)[C@H](O)[C@@H]2O", "target or system": "5-hydroxytryptamine receptor 2B (Mus musculus, UniProt Q02152)", "test": "antagonist, Gq dissociation BRET", "conditions": "mouse receptor", "measurement": "Kb", "value": "0.000338 mM"}
{"Compound": "CSc1nc(C)c(CCC(=O)O)c(=O)[nH]1", "target or system": "USP3 ZnF-UBD domain", "measurement": "Kd", "value": "51.8 µM"}
{"Compound": "Cc1nn(-c2nc3ccccc3[nH]2)c(O)c1C(c1ccccn1)c1c(C)nn(-c2nc3ccccc3[nH]2)c1O", "target or system": "Cyclic GMP-AMP synthase, catalytic domain; with DNA (CGAS, Homo sapiens, UniProt Q8N884)", "test": "cGAS phase separation, inhibitor", "measurement": "EC50", "value": "6.74 µM"}
{"Compound": "O=C(O)CCc1ccc2c(c1)OCO2", "target or system": "USP3 ZnF-UBD domain", "measurement": "Kd", "value": "> 1000 µM"}
{"Compound": "CCn1c(-c2nc3ccc(C(=O)N4CCCC(N)C4)cc3n2C)cc2ccccc21 (centres unmarked)", "target or system": "5-hydroxytryptamine receptor 3A (HTR3A, Homo sapiens, UniProt P46098)", "test": "intracellular calcium, antagonist, fluorescence", "measurement": "IC50", "value": "2.51 µM"}
{"Compound": "O=C(O)CCc1ccno1", "target or system": "USP3 ZnF-UBD domain", "measurement": "Kd", "value": "> 1000 µM"}
{"Compound": "CCCCCCCCCCCCCCCCCCc1ccc(O)cc1", "target or system": "Albumin (ALB, Bos taurus, UniProt P02769)", "test": "modified Stern–Volmer", "test system": "PBS", "conditions": "27 °C", "measurement": "Kb", "value": "16.2 mM"}
{"Compound": "Nc1nsc(C(=O)NCc2c(F)cccc2Cl)c1Cl", "target or system": "Lysine--tRNA ligase, chloroplastic/mitochondrial (OVA5, Arabidopsis thaliana, UniProt Q9LJE2)", "test": "enzyme activity, inhibitor", "measurement": "IC50", "value": "> 100 µM"}
{"Compound": "CC[C@@H]1[C@H](F)C(=O)N[C@@H]1COc1nccc2cc(C(N)=O)c(OC)cc12", "target or system": "Calcium/calmodulin-dependent protein kinase type 1 (CAMK1, Homo sapiens, UniProt Q14012)", "test": "ATP-site binding, ActivX KiNativ profiling", "test system": "THP-1 cell lysate", "conditions": "Lys1 CaMK1a probe site", "measurement": "IC50", "value": "> 5 µM"}
{"Compound": "CCc1ncc(C)nc1CC", "target or system": "Olfactory receptor (Mus musculus, UniProt Q8VGQ8)", "test": "cAMP, agonist", "test system": "HEK293 transfected with Olfactory receptor", "measurement": "EC50", "value": "270 ± 55.2 µM"}
{"Compound": "NS(=O)(=O)c1ccc(NCC(=O)O)cc1", "target or system": "USP3 ZnF-UBD domain", "measurement": "Kd", "value": "620 µM"}
{"Compound": "CCC(C)c1nccnc1OC (centres unmarked)", "target or system": "uncharacterized protein", "test": "cAMP level, agonist, cAMP luminescence", "test system": "HEK293 cells", "measurement": "EC50", "value": "172 ± 42.8 µM"}
{"Compound": "CC(=O)N1CC(C(=O)Nc2ccc([C@H]3[C@@H](F)[C@@H](F)C[C@@H](F)[C@H]3F)cc2)C1", "test": "hepatocyte stability", "test system": "cryopreserved human hepatocytes", "conditions": "1 µM", "measurement": "hepatic clearance", "value": "6.2 mL/min/kg"}
{"note": "Excerpt of the above:"}
{"Compound": "NS(=O)(=O)c1ccc(NCC(=O)O)cc1", "target or system": "USP3 ZnF-UBD domain", "measurement": "Kd", "value": "620 µM"}
{"Compound": "O=C(O)CCc1ccno1", "target or system": "USP3 ZnF-UBD domain", "measurement": "Kd", "value": "> 1000 µM"}
{"Compound": "COc1nccnc1C(C)C", "target or system": "uncharacterized protein", "test": "cAMP level, agonist, cAMP luminescence", "test system": "HEK293 cells", "measurement": "EC50", "value": "171 ± 19.4 µM"}
